Published values collected from several papers.
Organism: Trypanosoma brucei
Observed: parasite growth

c1cc(-c2ccc3ncnc(Nc4ncco4)c3c2)cc(N2CC3CCC(C2)O3)c1 — GI50 (SYBR Green; 48 h): 280 nM
C[n+]1cc(NC(=O)c2ccc3ccc4ccc(C(=O)Nc5cc6ccccc6[n+](C)c5)nc4c3n2)cc2ccccc21 — EC90 (resazurin): 1040 nM
COc1ccc(C(=O)CSc2[nH]c(=O)cc(C(F)(F)F)c2C#N)cc1 — EC50 (resazurin; RHODESIENSE): 22.1 µM
COc1cc2ncn(-c3cc(O[C@H](C)c4ccccc4Cl)c(C(N)=O)s3)c2cc1OC — EC50: 0.251 µM
Cc1cc(C)c(C#N)c(SCC(=O)c2ccc(F)cc2)n1 — EC50 (resazurin; RHODESIENSE): 36.2 µM
CN1CCN(c2cccc(-c3ccc4ncnc(Nc5ccc(Cl)c(C(F)(F)F)c5)c4c3)c2)CC1 — GI50 (SYBR Green): 310 nM
CCc1ccc(C(=O)CSc2nc(C)cc(C)c2C#N)cc1 — EC50 (resazurin): > 64 µM
CC(C)COC(=O)c1ccc2c(c1)/C(=C/Nc1ccc(S(N)(=O)=O)cc1)C(=O)N2 — EC50: 0.251 µM
COc1cc(C)c(C#N)c(SCC(=O)c2ccccc2)n1 — EC50 (resazurin): 34.9 µM
Cc1ccc2c(c1)C(=NNc1ccc(S(N)(=O)=O)cc1)C(=O)N2 — EC50: 1.58 µM
C[C@H]1CN(c2cccc(-c3ccc4ncnc(Nc5ncco5)c4c3)c2)CCO1 — GI50 (SYBR Green; 48 h): 230 nM
COC(=O)c1ccc2c(c1)C(=Cc1cc(Br)c(O)c(Br)c1)C(=O)N2 — EC50: 25.1 µM
CN(C)CCNC(=O)c1cccn2c(=O)c3cc4ccccc4cc3nc12 — EC90 (resazurin): 170 nM
Cc1cc(C)c(C#N)c(SCc2ccccc2)n1 — EC50 (resazurin): 41 µM
CN1CCN(Cc2ccc(-c3cc4ncnc(Nc5ccc(OCc6cccc(F)c6)c(Cl)c5)c4s3)o2)CC1 — EC50: 2 µM
C[C@@H]1CN(c2cccc(-c3ccc4ncnc(Nc5ncco5)c4c3)c2)C[C@H](C)O1 — GI50 (SYBR Green; 48 h): 320 nM
O=C1Nc2ccc(-c3cccnc3)cc2C1=Cc1cc(Br)c(O)c(Br)c1 — EC50: 2 µM
Cc1cc(C)nc(SCC(=O)c2cccs2)n1 — EC50 (resazurin; RHODESIENSE): > 64 µM
NS(=O)(=O)c1ccc(Nc2ncc(-c3ccccc3)o2)cc1 — EC50: 0.631 µM
Cc1ccc(Nc2ncnc3ccc(-c4cccc(N5CCOCC5)c4)cc23)cc1 — GI50 (SYBR Green; 48 h): 480 nM
Cc1cc(C)c(C#N)c(SCC(=O)c2ccc(Cl)cc2Cl)n1 — EC50 (resazurin; RHODESIENSE): 28.6 µM
c1cc(-c2ccc3ncnc(Nc4ncco4)c3c2)cc(N2CC3(COC3)C2)c1 — GI50 (SYBR Green; 48 h): 870 nM
COc1cc(C)c(NC(=O)CN(C)C)cc1Nc1nc(Nc2cccc(F)c2C(N)=O)c2cc[nH]c2n1 — EC50: 1.58 µM
CN1CCN(c2cccc(-c3ccc4ncnc(Nc5ccc([N+](=O)[O-])c(C(F)(F)F)c5)c4c3)c2)CC1 — GI50 (SYBR Green; GAMBIENSE): 170 nM
Cc1cnc(CNC(=O)c2c(=O)c3ccc(N4CCCN(C)CC4)nc3n3c2sc2ccccc23)cn1 — EC50 (resazurin): 0.15 µM
Cc1cc(C)c(C#N)c(SCC(=O)c2ccccc2)n1 — EC50 (resazurin; RHODESIENSE): 48.6 µM
Clc1ccc(Nc2ncnc3ccc(-c4cccc(N5CCOCC5)c4)cc23)cc1 — GI50 (SYBR Green; 48 h): 110 nM

Some of these lines once more:
CN1CCN(c2cccc(-c3ccc4ncnc(Nc5ccc([N+](=O)[O-])c(C(F)(F)F)c5)c4c3)c2)CC1 — GI50 (SYBR Green; GAMBIENSE): 170 nM
CC(C)COC(=O)c1ccc2c(c1)/C(=C/Nc1ccc(S(N)(=O)=O)cc1)C(=O)N2 — EC50: 0.251 µM
